# Experimental data of several laboratories.
# Parts stem from different laboratories: compare values within a part only. Positions count from the first letter of the parent shown.

# Study 1 — target: CCND2, cyclin fold, Cln2 fusion (human); method: yeast growth competition, sequencing; medium: yeast; setting: weak parent motif; baseline: not given; reading: higher = stronger binding
# Starting sequence: RBL2 docking peptide (human); STTRRRLFVENDS
Substitution,normalised enrichment score
T2C,-0.0736
S13N,-0.0862
F8D,0.215
R5A L7A,-0.0244
T2A,0.0351
E10C,-0.0636
V9N,0.705

# Study 2 — method: aptamer microarray, sandwich; form: DNA with 2'F-ANA; medium: in vitro; tested at: 200 nM; together with: Cy3 exosite-II aptamer, 400 nM; reading: higher = stronger binding; strand: GGTTGGTGTGGTTGG
# Target: Prothrombin, mature alpha-thrombin (F2, Homo sapiens, UniProt P00734)
# Setting: whole 15-mer aptamer, many near background
Modification,mean fluorescence intensity [a.u.]
2'F-ANA at 4 7 9 14 15,97
2'F-ANA at 7 9 10 13 14 15,102
2'F-ANA at 1 3 6 7 8 9 11 12,473
2'F-ANA at 5 7 11 14,50.3
2'F-ANA at 1 3 7 8 9 12 13 14,125
2'F-ANA at 1 2 9 11 14 15,51.7
2'F-ANA at 1 2 3 4 6 11,123
2'F-ANA at 4 5 7 8 10 14 15,48.7
2'F-ANA at 2 5 6 10 11 13 14,56.4
2'F-ANA at 1 2 3 6 7 8 9 10 12 13,82.5
2'F-ANA at 1 6 7 11 12,276
2'F-ANA at 1 2 6 7 13 15,110
2'F-ANA at 2 5 6 7 8 9 10 12 14,58.6
2'F-ANA at 1 4 5 6 7 10 12 14,48.8
2'F-ANA at 6 7 8 10 11 12 14,106

# Study 3 — method: Sort-seq; item: YFP reporter; medium: E. coli; setting: PhoQ-PhoP variant library; together with: 10 µM Mg2+; baseline: high Mg2+ state; reading: higher = stronger signaling
# Substance: PhoQ, residues 284 288 289 292 302 303 SVTLVV
target,fold induction
"PhoP, residues 12 14 15 18 19 QQAYL (Escherichia coli, UniProt P23836)",20.3
"PhoP, residues 12 14 15 18 19 LFHKL (Escherichia coli, UniProt P23836)",4.7
"PhoP, residues 12 14 15 18 19 GMGLL (Escherichia coli, UniProt P23836)",12.2

# Study 4 — method: RNA Bind-n-Seq; form: RNA; medium: in vitro; tested at: 365 nM; baseline: no-protein control; reading: higher = stronger binding
# Target: RNA binding protein fox-1 homolog 2, RRM domain, GST-SBP tag (RBFOX2, Homo sapiens, UniProt O43251-10, residues 100-194)
# Setting: natural RNA segment, single round, ends assumed
# Constant ends, left off below: GGGAGUUCUACAGUCCGACGAUC … UGGAAUUCUCGGGUGCCAA
# Residues (chain): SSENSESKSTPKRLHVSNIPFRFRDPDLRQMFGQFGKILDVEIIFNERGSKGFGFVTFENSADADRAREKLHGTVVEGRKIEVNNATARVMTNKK
Strand,RBNS enrichment (R)
CUUGUAAAUAUUGAUAGCACUGGCUUCCUCCAAAGUCCCAAUACUCUAGCCCCGCUCUCUUCCCCUCUUUCUGUCCCCCAUUUUCCAGGGGGUAUAUGGUCAGGGCUCCC,0.778
CUCGCCCACCGUUACCCUCUUCUUGUAUCUGAAUAUCAGAAACUAGAAAGUCCAACAGUGACACUCCCCCUGCUCCAAGGUGGGGACUUAAGUUUGUGAGGUACAAGAAU,0.316
ACUCGGGACGUCUUCAUUGAAGAUUCACUUACAAAGGAAUGUUUCACUAAAUAAAAGAAAACCAGAAUCUUCUGCUGUCUGGUCCCCUACGGAGGGAGCGGGGAGCGGGG,0.456
GGCGCUUCGAAAGGCGUGCAUGCAGAAAUGGCCGAGGACAUGCAGGUUUGGGUGGUGUGCCUGCAGACUUCAUUUGUGCCAAUGUAUUACUGUAGAGUCGCUCUGUUUCC,2.56
GUUGUCAUUCUUAGGAAUUUGGUUUGAAAUUUAUCAGUUAUACAGAAUUGUCAUACUGCAUUAGCUUCUACCUUUAGUAAGACAUAUUUUUUAGGUAUAAAUUCUUAUGC,0.924
GAUCCGUUGUAAAAAUAUAUAUGUGAAUAUAUAUACAUAACCAGUGCAAUCAGCUUUCAUUUCCUUUUUCUUGAAAACAUACGACUAUAUAGAAAGAAAGACAAUAAGAA,0.319
UUUGUCUUCUCUUUUCUGCACUUAAUACCUGACAGUAUGACCGAUCUCUGCGCCUUUCUGGGGGCGGGCAAGCUGGCGGUAGAUUUGUGAUGUCACAGUGCAAACUGCAG,0.363
ACCCCUGUGGAGGGGCUGCUGUGGGCCCUGACCUCCAAGCUCCUGCCUCACCGUCUGCCUUGCUCCUCUCUUCCCAAAUCAUCACCGCCAUGGGCCCAGCCCCAAAGGGC,0.682
UUGUUAUGUUGUAAUAUUUUGCUGCUGAAUUUGGGGCUACUUAUAUUCUGCAGAAAAUUAAUUGAAAUACCUAUUCAAGAAGAUAGUUGUAAAGAUAUUGUAUCUCCUUU,0.263
UCAUUCUCAGAAUUCGGUGUGCUGCCAACUUGAUGUUCCACCUGCCACAAACCACCAGGACUGAAAGAAGAAAACAGUACAGAAGGCAAAGUUUACAGAUGUUUUUAAUU,0.375
